# Assay results gathered from unrelated publications.
# Numbered parts are unrelated; each lists some results of a single study. Changes are numbered by the printed parent chain.
# UniProt Q9FGV1, sequence (whole entry, looked up): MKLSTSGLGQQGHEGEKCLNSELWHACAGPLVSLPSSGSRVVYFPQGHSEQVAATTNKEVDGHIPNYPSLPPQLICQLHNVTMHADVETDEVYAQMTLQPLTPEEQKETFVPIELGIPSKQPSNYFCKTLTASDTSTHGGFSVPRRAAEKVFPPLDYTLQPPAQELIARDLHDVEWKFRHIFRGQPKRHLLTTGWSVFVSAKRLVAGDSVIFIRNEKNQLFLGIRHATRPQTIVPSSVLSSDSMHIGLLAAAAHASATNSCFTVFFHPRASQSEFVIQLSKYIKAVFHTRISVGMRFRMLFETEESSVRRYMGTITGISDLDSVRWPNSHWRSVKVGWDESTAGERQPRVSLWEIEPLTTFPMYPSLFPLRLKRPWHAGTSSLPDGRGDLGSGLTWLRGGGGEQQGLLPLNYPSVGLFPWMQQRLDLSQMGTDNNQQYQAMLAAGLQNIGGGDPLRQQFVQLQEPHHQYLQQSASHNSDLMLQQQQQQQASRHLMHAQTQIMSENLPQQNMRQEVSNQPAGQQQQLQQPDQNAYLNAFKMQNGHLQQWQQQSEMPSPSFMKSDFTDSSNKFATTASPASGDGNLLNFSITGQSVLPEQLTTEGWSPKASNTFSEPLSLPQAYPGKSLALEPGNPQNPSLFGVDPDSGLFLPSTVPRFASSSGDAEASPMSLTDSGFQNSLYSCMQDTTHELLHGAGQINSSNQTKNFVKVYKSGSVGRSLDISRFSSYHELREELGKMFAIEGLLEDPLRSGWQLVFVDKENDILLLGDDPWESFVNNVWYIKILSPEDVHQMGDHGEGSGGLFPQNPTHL
# UniProt Q9FX25, sequence (whole entry, looked up): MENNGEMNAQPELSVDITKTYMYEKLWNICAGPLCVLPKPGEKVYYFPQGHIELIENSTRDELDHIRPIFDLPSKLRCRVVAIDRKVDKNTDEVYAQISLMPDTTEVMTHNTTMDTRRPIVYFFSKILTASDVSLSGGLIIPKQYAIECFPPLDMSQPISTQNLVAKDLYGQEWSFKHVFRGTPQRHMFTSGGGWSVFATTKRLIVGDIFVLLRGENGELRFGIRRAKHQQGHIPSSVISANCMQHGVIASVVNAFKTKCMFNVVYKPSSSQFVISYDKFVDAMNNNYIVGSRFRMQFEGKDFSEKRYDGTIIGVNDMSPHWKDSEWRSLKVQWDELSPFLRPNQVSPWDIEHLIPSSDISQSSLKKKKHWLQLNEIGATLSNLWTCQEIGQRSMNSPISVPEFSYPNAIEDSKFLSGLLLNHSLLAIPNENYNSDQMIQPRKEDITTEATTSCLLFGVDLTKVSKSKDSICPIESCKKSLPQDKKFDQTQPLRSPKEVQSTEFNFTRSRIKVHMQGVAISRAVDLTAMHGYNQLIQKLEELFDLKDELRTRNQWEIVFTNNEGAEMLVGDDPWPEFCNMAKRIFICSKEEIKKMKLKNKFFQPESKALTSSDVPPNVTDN
# UniProt O24408, sequence (whole entry, looked up): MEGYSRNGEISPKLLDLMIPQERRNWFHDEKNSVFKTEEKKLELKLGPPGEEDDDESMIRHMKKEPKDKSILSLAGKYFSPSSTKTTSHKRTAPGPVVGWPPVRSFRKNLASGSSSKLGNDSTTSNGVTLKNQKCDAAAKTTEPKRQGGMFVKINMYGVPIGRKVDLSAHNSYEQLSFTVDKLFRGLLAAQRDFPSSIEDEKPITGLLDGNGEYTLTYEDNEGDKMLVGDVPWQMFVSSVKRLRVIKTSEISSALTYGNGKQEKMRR
# UniProt Q38832, sequence (whole entry, looked up): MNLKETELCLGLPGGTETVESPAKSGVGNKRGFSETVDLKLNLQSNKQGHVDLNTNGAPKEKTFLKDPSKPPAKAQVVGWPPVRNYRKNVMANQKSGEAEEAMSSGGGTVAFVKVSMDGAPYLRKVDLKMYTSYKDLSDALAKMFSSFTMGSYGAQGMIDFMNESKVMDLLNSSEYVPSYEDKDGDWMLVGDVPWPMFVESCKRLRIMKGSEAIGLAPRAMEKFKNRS

# Set 1 — Molecule: B1 (IAA12); technique: two-hybrid; reference: out of 4 tests; reading: higher = firmer interaction
# B1: IAA12 (Arabidopsis thaliana, UniProt Q38830); chain MRGVSELEVGKSNLPAESELELGLGLSLGGGAWKERGRILTAKDFPSVGSKRSAESSSHQGASPPRSSQVVGWPPIGLHRMNSLVNNQAMKAARAEEGDGEKKVVKNDELKDVSMKVNPKVQGLGFVKVNMDGVGIGRKVDMRAHSSYENLAQTLEEMFFGMTGTTCREKVKPLRLLDGSSDFVLTYEDKEGDWMLVGDVPWRMFINSVKRLRIMGTSEASGLAPRRQEQKDRQRNNPV
partner,positive tests
"IAA18 (Arabidopsis thaliana, UniProt O24408)",3
"ARF8 699-811 (Arabidopsis thaliana, UniProt Q9FGV1)",4
"IAA14 (Arabidopsis thaliana, UniProt Q38832)",3
"ARF13 (Arabidopsis thaliana, UniProt Q9FX25)",0

# Set 2 — target: JUNB, bZIP domain (human); technique: DHFR protein complementation; sample: yeast; reference: wild-type JUN-FOS pair; reading: higher = stronger binding
# Setting: single substitutions, most at no-binding floor
# Parent: JUN, bZIP domain (human); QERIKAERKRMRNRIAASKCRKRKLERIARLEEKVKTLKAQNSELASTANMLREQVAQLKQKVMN; partner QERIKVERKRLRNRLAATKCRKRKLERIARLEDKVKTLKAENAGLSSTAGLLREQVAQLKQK
Variant,binding fitness [natural log]
A40W,-1.38
K39P,-1.53
Q55T,-1.39
V35R,-1.38
K34P,-1.53
M51G,-1.18
E32K,-1.19
A46E,-0.947

# Set 3 — target: CDC34 UBC core domain (UniProt P49427); technique: yeast two-hybrid; sample: yeast; setting: mostly zero background; reference: not given; reading: higher = stronger interaction
# B2: TRIM4 RING domain (UniProt Q9C037); chain EAEDIQEELTCPICLDYFQDPVSIECGHNFCRGCLHRNWAPGGGPFPCPECRHPSAPAALRP
# B3: RC3H1 RING domain (UniProt Q5TC82); chain QAPQWTDFLSCPICTQTFDETIRKPISLGCGHTVCKMCLNKLHRKACPFDQTTINTDIELL
# B4: TRIML1 RING domain (UniProt Q8N9V2); chain LMENLREELTCFICLDYFSSPVTTECGHSFCLVCLLRSWEEHNTPLSCPECWRTLEGPHFQS
# B5: RNF38 RING domain (UniProt Q9H0F5); chain PNNHQSEQTLCVVCMCDFESRQLLRVLPCNHEFHAKCVDKWLKANRTCPICRADASEVHRDS
# B6: VPS41 RING domain (UniProt P49754); chain KGVLVDEENICESCLSPILPSDAAKPFSVVVFHCRHMFHKECLPMPSMNSAAQFCNICSAKNRGPGSAI
# Residues (chain): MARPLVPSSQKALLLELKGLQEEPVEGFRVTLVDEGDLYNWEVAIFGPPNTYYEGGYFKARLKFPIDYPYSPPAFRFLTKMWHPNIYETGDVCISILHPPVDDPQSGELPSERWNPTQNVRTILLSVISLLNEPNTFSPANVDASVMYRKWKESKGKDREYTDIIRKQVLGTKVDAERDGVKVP
Molecule,lacZ reporter activity
B2 (TRIM4 RING domain),0
ASLPTSEEDLCPICYAHPISAVFQPCGHKSCKACINQHLMNNKDCFFCKTTIVSVEDWE (RNF123 RING domain (UniProt Q5XPI4)),0
VEPSEENSKDCVVCQNGTVNWVLLPCRHTCLCDGCVKYFQQCPMCRQFVQESFALC (CGRRF1 RING domain (UniProt Q99675)),0
B3 (RC3H1 RING domain),0
DHGAVGQEMCCPICCSEYVKGEVATELPCHHYFHKPCVSIWLQKSGTCPVCRCMFPPPL (PJA1 RING domain (UniProt Q8NG27)),0
B4 (TRIML1 RING domain),0
B5 (RNF38 RING domain),0
B6 (VPS41 RING domain),0

# Mixed results
Molecule,target,test,test system,conditions,quantity,result
AINGFVLPK,"HLA class I histocompatibility antigen, A alpha chain, allele A*80:01 (Homo sapiens, UniProt P04439)",peptide-MHC binding,peptide,concentration not given,binding,inactive

# Some of these lines once more (set 2):
Variant,binding fitness [natural log]
M51G,-1.18
E32K,-1.19
A46E,-0.947
